Measured values from different studies.
Values joined by “and” are separate records of one study, mostly repeats; a detail may differ. Numbers after ± are the reported error.

For `Clc1cc2c(cc1Cl)Oc1c(ccc(Cl)c1Cl)O2`, “dose fraction in milk fat” read 84% (whole cow milk; 20 nM nominal).
Under “patients with adverse event”, `C[C@@H]1OC(=O)NN=C1c1ccc(-c2ccc(F)cc2)c(C(F)(F)F)c1` is recorded as 100% (phase I trial, item: Nausea worst grade 1; human patients; 10 mg loading then 0.5 mg daily).
For `COc1ccc2c(c1)CN(C(=O)CCN1CCC(Cc3ccccc3)CC1)CC[S@@+]2[O-]`, “extrasystoles per hour” read “no effect” (dogs, chronic AV block; intravenous, 1 and 3 mg/kg).
For `CC(=O)NCC(=O)NCC(=O)N[C@H](C(=O)N[C@@H](Cc1ccc(O)cc1)C(=O)N[C@@H](CO)C(=O)N[C@H]1CSSC[C@@H](C(=O)N[C@@H](CCCNC(=N)N)C(=O)N2CCC[C@H]2C(=O)N[C@@H](CCC(N)=O)C(=O)N[C@@H](CCCNC(=N)N)C(=O)NCC(=O)NCCC(=O)N[C@@H](CCCCNC(=O)CN(CC(=O)NCCCC[C@H](NC(=O)CCNC(=O)CNC(=O)[C@H](CCCNC(=N)N)NC(=O)[C@H](CCC(N)=O)NC(=O)[C@@H]2CCCN2C(=O)[C@H](CCCNC(=N)N)NC(=O)[C@@H]2CSSC[C@H](NC(=O)[C@H](CO)NC(=O)[C@H](Cc3ccc(O)cc3)NC(=O)[C@@H](NC(=O)CNC(=O)CNC(C)=O)[C@@H](C)O)C(=O)N[C@@H](Cc3c[nH]cn3)C(=O)N[C@@H](Cc3ccccc3)C(=O)NCC(=O)N[C@@H](C)C(=O)N[C@@H](CC(C)C)C(=O)N[C@@H]([C@@H](C)O)C(=O)N[C@@H](Cc3c[nH]c4ccccc34)C(=O)N[C@@H](C(C)C)C(=O)N2)C(N)=O)C(=O)CCN)C(N)=O)NC(=O)[C@H](C(C)C)NC(=O)[C@H](Cc2c[nH]c3ccccc23)NC(=O)[C@H]([C@@H](C)O)NC(=O)[C@H](CC(C)C)NC(=O)[C@H](C)NC(=O)CNC(=O)[C@H](Cc2ccccc2)NC(=O)[C@H](Cc2c[nH]cn2)NC1=O)[C@@H](C)O`, serum concentration read “not detected” (MSD immunoassay; BALB/c mice, healthy female, serum; subcutaneous, 0.08 mg/kg, 48 h, LLOQ 2.0 ng/mL).
`CN1CC[C@@H](c2c(O)cc(O)c3c(=O)cc(-c4ccc(C(F)(F)F)cc4Cl)oc23)[C@@H]1CO` — result for “patients with adverse event”: 0% (item: Hypertension; AML; oral, 100 mg, intermittent dosing).
`Brc1ccc(Oc2cc(Br)c(Br)cc2Br)c(Br)c1` — result for “dose fraction in permeate”: 18% (ultrafiltration; cow milk whey; 20 nM nominal in whole milk).
`COc1ncccc1-c1cnn2ccc(N3CCN(C(=O)OC(C)C)CC3)nc12` gave a drug concentration of 13 µM (mouse, SNL model, plasma; oral, 60 mg/kg, 120 min).
`C[C@@H](NC(=O)N1C(=O)[C@H](Cc2ccnc(N)c2)[C@H]1C(=O)O)C1CCCCC1`: “incidence of elevated creatine phosphokinase” 0% (healthy adult Chinese volunteers; continuous intravenous infusion, 0.6 mg/kg/h, 5-day infusion, CTCAE 5.0 grading).
Under “drug-related Headache incidence”, `C[C@]1(CO)Cc2ncn(-c3ccc(C#N)c(Cl)c3)c2C(=O)O1` is recorded as 25% (healthy humans; 10 mg, fasted).
The fetal accumulation of `CCCC1CCC(C2CCC(c3ccc(F)c(F)c3)CC2)CC1` (stereo not drawn) is reported as 1.63 ± 1.56 ng/g (rat, fetus; 5000 ng/mL in perfusate, high dose, mixture of 21 LCMs).
With `c1ccc2c(c1)ccc1c3ccccc3ccc21` the Vmax was 11.7 pmol/min/mg (metabolism; pooled human liver microsomes; pH 7.4).
For `CCCCCCCCCCCCCCCC(=O)N[C@@H](CCC(=O)NCCCC[C@H](NC(=O)[C@H](CC(=O)O)NC(=O)[C@H](CO)NC(=O)[C@@H](NC(=O)[C@H](Cc1ccccc1)NC(=O)[C@@H](NC(=O)CNC(=O)[C@H](CCC(N)=O)NC(=O)[C@H](CO)NC(=O)[C@@H](N)Cc1c[nH]cn1)[C@@H](C)O)[C@@H](C)O)C(=O)N[C@@H](CO)C(=O)N[C@@H](CCC(=O)O)C(=O)N[C@@H](Cc1ccc(O)cc1)C(=O)N[C@@H](CC(C)C)C(=O)N[C@@H](CC(=O)O)C(=O)N[C@@H](CO)C(=O)N[C@@H](CCC(=O)O)C(=O)N[C@@H](CCCNC(=N)N)C(=O)N[C@@H](C)C(=O)N[C@@H](CCCNC(=N)N)C(=O)N[C@@H](CC(=O)O)C(=O)N[C@@H](Cc1ccccc1)C(=O)N[C@H](C(=O)N[C@@H](C)C(=O)N[C@@H](Cc1c[nH]c2ccccc12)C(=O)N[C@@H](CC(C)C)C(=O)N[C@@H](CCC(=O)O)C(=O)N[C@@H](C)C(=O)NCC(=O)NCC(=O)O)C(C)C)C(=O)O`, the abdominal distension was 9.1% (human, CrCl ≥30 to <45 mL/min; sc, 100 µg single dose).
`CC(=O)c1c(C)c2cnc(Nc3ccc(C4CCN(CCS(C)(=O)=O)CC4)cn3)nc2n(C2CCCC2)c1=O` has an AUC(0-inf) of 2710 ng·h/mL (human, dose-escalation trial, plasma; oral, 75 mg twice daily, day 21, multiple doses).
`CNC(=O)C(CCN1CCC(O)(c2ccc(Cl)cc2)CC1)(c1ccccc1)c1ccccc1`: “unbound fraction in cells” 0.029 (ultrafiltration; dog, cell homogenate; 1 µM).
`O=C(Nc1ccccc1)C1CCN(C(=O)Oc2cccnc2)CC1` — result for “subjects with sleep disorder”: 0% (adverse event reporting; healthy women; oral, 100 mg, 9 days).
`CC(C)N(N=O)C(C)C` — result for Ames mutagenicity: “positive” (water; up to 5000 µg/plate).
`O=C(O)CCCOc1ccc(F)cc1-c1cc(-c2ccccc2C(F)(F)F)n(-c2ccccc2)n1` — result for “relative organ weight”: 0.22 ± 0.05 g% (female Crl:CD(SD) rats, uterus; intravenous, 25 µg/kg, 1 d).
`O=C1Nc2cc3[nH]nc(-c4ccncc4)c3cc2CN1Cc1ccccc1`: “patients with fatigue” 33% (CTCAE v4.03; advanced solid tumour patients; intravenous, 9.6 mg/kg, schedules 1/2).
The freeze-thaw stability of `O=c1nc(NO)ccn1[C@@H]1O[C@H](CO)[C@@H](O)[C@H]1O` is reported as 97.8 ± 2.56% (rat maternal placenta dialysate; 1000 ng/mL, high concentration, three cycles, added: molnupiravir 250 ng/mL).
For `Fc1ccc([C@@H]2CCNC[C@H]2COc2ccc3c(c2)OCO3)cc1`, “List of Complaints score” read 0 score (item: Perspiration; healthy volunteers; oral, dose not given, given -1 h relative to LSD, added: LSD; direction not given).
For `CC(C)[C@@H]1NC(=O)CNC(=O)[C@H](CC(N)=O)NC(=O)[C@H](CCCNC(=N)N)NC(=O)[C@H](Cc2ccc(O)cc2)NC(=O)[C@H](C(C)C)NC(=O)[C@@H](NC(=O)[C@@H](NC(=O)[C@H](CC(N)=O)NC(=O)[C@H](Cc2c[nH]c3ccccc23)NC(=O)[C@H](C)NC(=O)[C@H](Cc2ccccc2)NC(=O)CN)C(C)C)CSSC[C@@H](C(=O)N[C@@H](Cc2cnc[nH]2)C(=O)N[C@@H](CCCNC(=N)N)C(=O)N[C@@H](CCCNC(=N)N)C(=O)N[C@@H](C)C(=O)N[C@@H](CC(N)=O)C(N)=O)NC(=O)[C@H](C(C)C)NC(=O)[C@H](CCCNC(=N)N)NC1=O`, the AST was 24.6 ± 0.6 IU/L (ICR mice, serum; intraperitoneal, 5 mg/kg, day 5).
The Basophil percentage of `CCc1ccc(CC/C=C/c2ccc3c(c2)C(=O)CC3)cc1` is reported as 0.4% (Sprague-Dawley rat, male; oral, 30 mg/kg/day, 14 days).
`CN1CCN(S(=O)(=O)c2cc([N+](=O)[O-])ccc2N(CCOS(C)(=O)=O)CCOS(C)(=O)=O)CC1` — result for “apparent volume Vz/F”: 1.73 (mg/kg)/(µM) (naive NSG mice, plasma; intraperitoneal, 5 mg/kg).
The AUC of `Cn1ncc(-c2nc(N[C@H]3CC[C@H](N)CC3)ncc2Cl)c1CC1CC1` is reported as 36.1 ng·h/mL (human patients, plasma; oral, 1 mg, day 1).
Under “abdominal distension incidence”, `COc1cc2c(Oc3ccc4[nH]c(C)cc4c3F)ccnc2cc1OCC1(N)CC1` is recorded as 25% (paediatric refractory sarcoma patients; 10 mg).
The hemolysis of `CC(C)C[C@H](NC(=O)[C@H](C)NC(=O)[C@@H](NC(=O)[C@H](CCCNC(=N)N)NC(=O)[C@H](CC(C)C)NC(=O)[C@H](Cc1c[nH]c2ccccc12)NC(=O)[C@@H]1CCCN1C(=O)[C@@H](N)CCCCN)C(C)C)C(=O)N[C@@H](CS)C(=O)N1CCC[C@H]1C(=O)NCC(=O)O` is reported as 1.07% and 0.57% and 1.04% (sheep red blood cells; 64 µM, 1 h, 37 °C).
`C[C@@H]1NC(=O)[C@H](CCCCNC(=O)CO/N=C/C(=O)NCCCC[C@@H]2NC(=O)[C@@H](Cc3ccccc3)NC(=O)[C@H](CC(=O)O)NC(=O)CNC(=O)[C@H](CCCNC(=N)N)NC2=O)NC(=O)CNC(=O)[C@@H]2CCCN2C(=O)[C@H](CCCCNC(=O)CO/N=C/C(=O)NCCCC[C@@H]2NC(=O)[C@@H](Cc3ccccc3)NC(=O)[C@H](CC(=O)O)NC(=O)CNC(=O)[C@H](CCCNC(=N)N)NC2=O)NC(=O)[C@H](CCCCNC(=O)CCNC(=O)CCNC(=O)CCNC(=O)[C@H](CCCCN)NC(=O)[C@H](Cc2ccccc2)NC(=O)CNC(=O)CN2CCCNCCNCCCNCC2)NC(=O)[C@H](CCCCNC(=O)CO/N=C/C(=O)NCCCC[C@@H]2NC(=O)[C@@H](Cc3ccccc3)NC(=O)[C@H](CC(=O)O)NC(=O)CNC(=O)[C@H](CCCNC(=N)N)NC2=O)NC(=O)CNC(=O)[C@@H]2CCCN2C(=O)[C@H](CCCCNC(=O)CO/N=C/C(=O)NCCCC[C@@H]2NC(=O)[C@@H](Cc3ccccc3)NC(=O)[C@H](CC(=O)O)NC(=O)CNC(=O)[C@H](CCCNC(=N)N)NC2=O)NC1=O` [copper-64 labelled] has a tissue uptake of 23.3 ± 0.56 %ID/g (normal mice, liver; intravenous, 0.74 MBq, 24 h post-injection).
For `Cn1nc(NS(C)(=O)=O)c2c(Cl)ccc(-n3c([C@H](Cc4cc(F)cc(F)c4)NC(=O)Cn4nc(C(F)F)c5c4C(F)(F)[C@@H]4C[C@H]54)nc4nc(OCCC(F)(F)F)ccc4c3=O)c21`, “drug-related adverse events” read 0% (item: total bile acids increased; human; 125 mg, powder in bottle).
`C=CC(=O)Nc1cc(Nc2nccc(Nc3cc(Cl)c(F)cc3C(C)(C)O)n2)c(OC)cc1N1CC[C@@H](N(C)C)C1`: “patients with diarrhoea” 62.5% (human patients; oral, 200 mg, treatment-emergent adverse events).
`CCCCCCCCCCC[C@H](OC1OC[C@H](O)[C@@H](O)[C@@H]1O)[C@H](O)[C@H](O)C[C@@H]1CC(=O)N[C@H](CO)C(=O)N[C@H]([C@H](O)c2ccc(O)cc2)C(=O)N[C@H](CCN)C(=O)NCC(=O)N[C@@H](CC(N)=O)C(=O)N[C@@H](CO)C(=O)N[C@@H]([C@H](O)C(N)=O)C(=O)N1` (stereo partly drawn) has a measured concentration of 768 ng/mL (LC-MS/MS; rabbit plasma, sodium citrate; 800 ng/mL, 3 freeze-thaw cycles, stored at -80°C).
`COc1ccc(C[C@@H]2NC(=O)[C@H]([C@@H](C)O)NC(=O)[C@@H]3[C@@H]4CCN3C(=O)[C@@H]3Cc5cn(c6ccc(F)cc56)CCCCCCN(Cc5ccc(cc5)CCNC(=O)[C@]5(C)CCCN5C2=O)C(=O)CCC(=O)N[C@@H](C)C(=O)N[C@H](CNC(=O)CCCCC[N+](C)(C)C)C(=O)N[C@@H](Cc2cccc(c2)CNC(=O)CO4)C(=O)N3)cc1` — result for “participants with adverse event”: 9.7% (item: Diarrhea; humans; concentration not given, Study-003).
Under “neutropenia incidence, grade ≥3”, `CCN1CCN(Cc2ccc(Nc3ncc(F)c(-c4cc(F)c5nc6n(c5c4)[C@H](C)CCC6)n3)nc2)CC1` is recorded as 8.3% (advanced solid tumour patients; dose not given, Phase Ia monotherapy).
`C[C@]1(O)C[C@@](N)(c2ccc(-c3nc4n(c3-c3ccccc3)COc3ccncc3-4)cc2)C1` — result for “patients with Stomatitis TEAE”: 100% (human, advanced or metastatic solid tumours; 28 mg intermittent, phase I dose escalation).
For `CO[C@H]1C[C@@H]2CC[C@@H](C)[C@@](O)(O2)C(=O)C(=O)N2CCCC[C@H]2C(=O)O[C@H]([C@H](C)C[C@@H]2CC[C@@H](OC(=O)NCCOCCOCCOCCOCCOCCOCCOCCOCCC(=O)N3CCc4cc(Cn5nc(-c6ccc7oc(N)nc7c6)c6c(N)ncnc65)ccc4C3)[C@H](OC)C2)C[C@@H](O)[C@H](C)/C=C(\C)[C@@H](O)[C@@H](OC)C(=O)[C@H](C)C[C@H](C)/C=C/C=C/C=C/1C`, “dose-reducing adverse events” read 0% (phase 1 dose escalation, item: mucositis; advanced solid tumour patients; intravenous, 6 mg weekly, any grade).
For `[O-][S+]1CCc2nc(N3CCC(c4ncc(Cl)cn4)CC3)nc(NC3(CO)CCC3)c21` (stereo not drawn), “adverse event incidence” read 16.7% (item: Diarrhoea; healthy male humans; 36 mg single dose).
With `Clc1ccc(-c2ccccc2)cc1` the alkaline phosphatase was 152 ± 46 U/L (Sprague-Dawley rats, female, serum; inhalation, 23 µg/rat, 0 h after exposure).
